Measurements pooled from the literature.
A part holds a random share of what one study measured.

Sample 1
Target: RNA binding protein fox-1 homolog 2, RRM domain, GST-SBP tag (RBFOX2, Homo sapiens, UniProt O43251-10, residues 100-194)
Method: RNA Bind-n-Seq
Molecule type: RNA
Matrix: in vitro
Tested at: 365 nM
Setting: natural RNA segment, single round, ends assumed
Reference: no-protein control
Direction: higher = stronger binding
Residues (chain): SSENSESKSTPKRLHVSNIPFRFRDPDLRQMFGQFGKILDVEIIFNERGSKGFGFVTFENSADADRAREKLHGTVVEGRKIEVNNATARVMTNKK
For `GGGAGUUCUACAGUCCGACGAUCUCCUCUGAUGUCAGCGUAUUAGUCUCAGUUUACAAAGUACUUAAUAAAACUAACUACUGUAAAACCAUGGAUCAUUUCUUUAGAGUGGUCUUUAGAGCAACAGGCAUUUGUGGAAUUCUCGGGUGCCAA`, “RBNS enrichment (R)” read 0.336.
For `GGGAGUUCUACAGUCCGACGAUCGACCCCAGCUGUUGUCUGCCCAGUAGAAGUGGGUGGGGGUAGGAGGGGAUAGGGUGUCCUUGGGAACAAUGGAUCCCAGCUUAGCCCCAAAGACCAACCAAAGAGCCAGCUGGAAUUCUCGGGUGCCAA`, “RBNS enrichment (R)” read 0.597.
`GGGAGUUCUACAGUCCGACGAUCGCGCGGUGGCUCACGCCUGUAAUCCCAGCAGUUUGGGAGGUCGAGGUAGGUGGAUCACCUGAGGUCGGGAGUUCGAGACCAACCUGACCAACAUGGAGAAACCCUGUCUCUGGAAUUCUCGGGUGCCAA`: “RBNS enrichment (R)” 0.238.
`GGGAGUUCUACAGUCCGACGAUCCAUGCAAGAGGUAGGGGGGUAAAGAAUAAGUAGUCCUAUCAAUCAGGUAUAAGUUGUUUCAAGAGAGAAGAUUCACCAAAACUUGGAUCUCACCCCAUUCCAAACCCAACUGGAAUUCUCGGGUGCCAA`: “RBNS enrichment (R)” 1.61.
For `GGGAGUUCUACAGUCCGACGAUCGUUGCACUUGGUGGACCGUGCCUGGGAGCGCUCGCAUGCCCCCUGGCUUCAGAAGUCAUGUCAGUGUCUCUGUAGACAAACUCCACUGUACAUCUUGGAUUAAUCUUCUGUGGAAUUCUCGGGUGCCAA`, “RBNS enrichment (R)” read 0.495.
Under “RBNS enrichment (R)”, `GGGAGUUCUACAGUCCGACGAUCAUCUGUCCACAAUGCCUACUGUCUCUGUGGUGAAAUAUUAAAAUAUGUAAGCUCACAUGGAAGUUUAAGAAUUUCUGUGUUAAUACUUGGAAUAACCCAGAGAAAAGAAGUGGAAUUCUCGGGUGCCAA` is recorded as 0.647.
Under “RBNS enrichment (R)”, `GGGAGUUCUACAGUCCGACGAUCGUGAUAAGGUAACAUGGGGUUUUUCUGGGCCAGCCUUUAGAACACUGUUAGGGUACAUACGCUACCUUGAUGAAAGGGACCUUCGUGCAACUGUAGUCAUCUUAAAGGCUUGGAAUUCUCGGGUGCCAA` is recorded as 0.313.
`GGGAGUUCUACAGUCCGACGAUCUUCUGCGUAAAUUAAAUUGUGUACUGAAGGGAAAAGUUUGAUCAUACCAAACAUUUCCUAAACUCUCUAGUUAGAUAUCUGACUUGGGAGUAUUAAAAAUUGGGUCUAUGUGGAAUUCUCGGGUGCCAA` — result for “RBNS enrichment (R)”: 0.289.

Sample 2
Target: Prothrombin, mature alpha-thrombin (F2, Homo sapiens, UniProt P00734)
Method: aptamer microarray, sandwich
Molecule type: DNA with 2'F-ANA
Matrix: in vitro
Tested at: 200 nM
Setting: whole 15-mer aptamer, many near background
Added: Cy3 exosite-II aptamer, 400 nM
Direction: higher = stronger binding
Strand: GGTTGGTGTGGTTGG
For `2'F-ANA at 1 3 4 8 9 11 13 15`, “mean fluorescence intensity” read 149 a.u.
For `2'F-ANA at 1 6 7 9 10 13 15`, “mean fluorescence intensity” read 51.4 a.u.
`2'F-ANA at 1 3 4 6 8 9 12 15`: “mean fluorescence intensity” 390 a.u.
`2'F-ANA at 5 6 7 8 10 11 12 14` — result for “mean fluorescence intensity”: 47.4 a.u.
For `2'F-ANA at 3 4 6 8 9 10 11 14`, “mean fluorescence intensity” read 193 a.u.
Under “mean fluorescence intensity”, `2'F-ANA at 2 3 4 5 7 8 9 11 13 14 15` is recorded as 51.7 a.u.
`2'F-ANA at 2 3 4 6 8 9 11 13 14 15`: “mean fluorescence intensity” 193 a.u.
`2'F-ANA at 2 3 4 7 9 12 13` — result for “mean fluorescence intensity”: 657 a.u.

Sample 3
Target: Fragile X messenger ribonucleoprotein 1, C-terminal low-complexity region (Fmr1, Mus musculus, UniProt P35922)
Method: RNA Bind-n-Seq
Molecule type: RNA
Matrix: in vitro
Tested at: 200 nM
Setting: whole 134-nt RNA, ends assumed
Added: 150 mM LiCl
Reference: input library
Direction: higher = stronger binding
All molecules: 7-deaza-guanosine replaces G
`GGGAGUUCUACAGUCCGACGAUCCAAGUCCUGUGCUACACAUCGUAUGUACCGAAUCGGGCCCGGGCCCGGGGCCCGGAAAGUAUUAUGUUACGCCGUUCGGAUCUGCACUUCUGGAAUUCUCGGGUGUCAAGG` gave a log2 enrichment of -1.72.
With `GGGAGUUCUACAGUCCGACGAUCAGUCCUGUGCUACACAUCGUAUGUACCGAAUCGGUUUUUGGGUUUUUGGUUUUUGGGGAAAGUAUUAUGUUACGCCGUUCGGAUCUGCACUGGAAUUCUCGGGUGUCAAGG` the log2 enrichment was -1.18.
`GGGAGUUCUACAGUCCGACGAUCGCAGGAAGUAAAAACAAAUGGAAAAAAUUCGGAUAGUGGCAGGGGUGGGGGUUGCUAAGGAAAGGGUGGGAUGGGAGUGGGUAAAGAGUUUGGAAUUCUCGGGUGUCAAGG` has a log2 enrichment of 1.11.
The log2 enrichment of `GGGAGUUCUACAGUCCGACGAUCUGGGGAGACUACGAUGACAGCGCCUUCAUGGAGCCCAGGUACCACGUCCGUGGAGAAGAUCUGGACAAGCUCCACAGAGCUGCCUGGUGGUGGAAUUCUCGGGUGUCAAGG` is reported as -2.59.
The log2 enrichment of `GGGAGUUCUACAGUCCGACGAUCUUGCAGGAGCCGCCGCGCCUCGGCCUAGCAUGUCGGAAGCGGGCGAGGAGCAGCCCAUGGAGACGACGGGCGCCACCGAGAACGGACAUGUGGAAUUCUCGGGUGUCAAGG` is reported as -1.08.

Mixed results
`PhoQ, residues 284 288 289 292 302 303 TVTVVA` has a fold induction of 4.65 (PhoP, residues 12 14 15 18 19 YHFSH (Escherichia coli, UniProt P23836); Sort-seq, refers to: YFP reporter; E. coli; PhoQ-PhoP variant library, added: 10 µM Mg2+; reference: high Mg2+ state, higher = stronger signaling).

Repeated from above (sample 2):
`2'F-ANA at 2 3 4 7 9 12 13` — result for “mean fluorescence intensity”: 657 a.u.
For `2'F-ANA at 1 3 4 8 9 11 13 15`, “mean fluorescence intensity” read 149 a.u.
`2'F-ANA at 2 3 4 6 8 9 11 13 14 15`: “mean fluorescence intensity” 193 a.u.
